Assay results of several laboratories.
Every numbered part comes from another study and shows a few of its results, in no order. Changes are numbered by the printed parent chain.

Sample 1
Target: ABI1, truncated, D143A, DHFR fusion (Arabidopsis thaliana)
Method: DHFR PCA, deep sequencing
Medium: yeast
Setting: methotrexate growth selection, single substitutions
Together with: (+)-ABA 2500 µM
Reference: wild-type fitted maximum
Reading: higher = stronger binding
Parent: PYL1, truncated, DHFR fusion (Arabidopsis thaliana); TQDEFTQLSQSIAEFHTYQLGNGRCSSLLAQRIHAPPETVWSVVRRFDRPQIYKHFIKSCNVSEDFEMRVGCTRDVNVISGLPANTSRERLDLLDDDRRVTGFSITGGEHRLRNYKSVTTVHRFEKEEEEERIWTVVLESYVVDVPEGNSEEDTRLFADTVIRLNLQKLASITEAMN
Variant	relative binding score [%]
D92E	101
D144G	79.3
S171F	90.5
N77S	95.8
R90M	89.3
N22G	104
V143K	-5.36
T101V	97.5
I57S	57.8
R88T	99.6
V100G	76.7
E151P	98.8
V145K	83.9
H16A	46.5
E131S	105
F5A	102
M68K	84.6
N77P	51.4
G102C	84.1
N165D	71.1
H55T	103
T73V	97.2

Sample 2
Target: CCNA2, cyclin fold, Cln2 fusion (human)
Method: yeast growth competition, sequencing
Medium: yeast
Setting: strong parent motif
Reference: not given
Reading: higher = stronger binding
Parent: MICAL3 docking peptide (human); LQLRRQLSFSEDS; partner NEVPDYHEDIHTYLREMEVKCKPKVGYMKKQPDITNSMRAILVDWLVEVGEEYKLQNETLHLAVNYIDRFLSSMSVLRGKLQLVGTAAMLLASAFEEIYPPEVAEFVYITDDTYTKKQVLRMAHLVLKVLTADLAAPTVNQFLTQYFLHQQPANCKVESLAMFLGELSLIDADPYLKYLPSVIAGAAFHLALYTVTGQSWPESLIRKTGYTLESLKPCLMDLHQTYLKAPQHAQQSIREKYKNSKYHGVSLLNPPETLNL
Variant	normalised enrichment score
R4D	-0.206
L7P	-0.516
Q2W	2.13
S10Y	2.64
L3S	5.48
R4L	0.283
S10N	3.09
D12L	3.43
R4C	2.13
R5Y	0.256
L7W	-0.033
Q6A	3.02
L3E	0.138
Q2L	3.44
R4N	1.65
Q2V	3.29
E11W	1.91
L3I	5.2
F9G	0.0624
S8P	0.666
S8A	1.62
R5C	0.537
Q6K	4.73
L7R	0.0178
R4M	0.222

Sample 3
Target: Cyclic AMP-dependent transcription factor ATF-1, full length (ATF1, Homo sapiens, UniProt P18846, residues 1-271)
Method: protein-binding microarray
Form: hairpin DNA
Medium: in vitro
Tested at: not given
Setting: whole hairpin DNA, median over replicate spots
Reference: not given
Reading: higher = stronger binding
Target sequence (chain): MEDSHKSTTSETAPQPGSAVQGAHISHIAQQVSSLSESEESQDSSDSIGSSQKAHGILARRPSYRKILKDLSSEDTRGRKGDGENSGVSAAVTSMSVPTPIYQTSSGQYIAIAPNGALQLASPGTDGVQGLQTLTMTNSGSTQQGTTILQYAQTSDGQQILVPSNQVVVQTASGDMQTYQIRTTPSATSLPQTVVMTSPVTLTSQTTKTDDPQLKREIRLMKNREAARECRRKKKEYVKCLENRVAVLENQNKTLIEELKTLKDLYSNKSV
Sequence	median fluorescence [a.u.]
GAGGCCGACCACGTCGTGCCTCCTGGCACGACGTGGTCGGCCTCACACTC (5mC at 9 10 15 29)	4490
GAGGCCGGCTGACGCGAGCCTCCTGGCTCGCGTCAGCCGGCCTCACACTC	4290
GAGGCCGACCGCGTCGTGCCTCCTGGCACGACGCGGTCGGCCTCACACTC (5mC at 9 15 29 34)	5080
GAGGCCGACGACGTAGTGCCTCCTGGCACTACGTCGTCGGCCTCACACTC (5mC at 9 29 35)	6120
GAGGCCGGCTGACGCCAGCCTCCTGGCTGGCGTCAGCCGGCCTCACACTC	3780
GAGGCCGTCTGACGTCAGCCTCCTGGCTGACGTCAGACGGCCTCACACTC	9720
GAGGCCGGCTGCGGTCAGCCTCCTGGCTGACCGCAGCCGGCCTCACACTC (5mC at 32)	3520
GAGGCCGGCTGACGACAGCCTCCTGGCTGTCGTCAGCCGGCCTCACACTC	4100
GAGGCCGGGTGACGTCAGCCTCCTGGCTGACGTCACCCGGCCTCACACTC (5mC at 36)	17800
GAGGCCGGATGTCGTCAGCCTCCTGGCTGACGACATCCGGCCTCACACTC	4410
GAGGCCGGCTCGCGTCAGCCTCCTGGCTGACGCGAGCCGGCCTCACACTC (5mC at 33)	5440
GAGGCCGGCCGACGTCAGCCTCCTGGCTGACGTCGGCCGGCCTCACACTC	6020
GAGGCCGGCTCGCGTCAGCCTCCTGGCTGACGCGAGCCGGCCTCACACTC (5mC at 11 33)	5390
GAGGCCGGCTGACTTCAGCCTCCTGGCTGAAGTCAGCCGGCCTCACACTC	3060
GAGGCCGGCTCACGTCAGCCTCCTGGCTGACGTGAGCCGGCCTCACACTC	4700
GAGGCCCGCTGACGTCAGCCTCCTGGCTGACGTCAGCGGGCCTCACACTC (5mC at 37)	11500
GAGGCCGGCTGACGTCGGCCTCCTGGCCGACGTCAGCCGGCCTCACACTC (5mC at 16)	4930
GAGGCCGACTACGTCGTGCCTCCTGGCACGACGTAGTCGGCCTCACACTC (5mC at 9 15 29)	5080
GAGGCCGACGACCTCGTGCCTCCTGGCACGAGGTCGTCGGCCTCACACTC (5mC at 9 15 29 35)	3210
GAGGCCGACGACATCGTGCCTCCTGGCACGATGTCGTCGGCCTCACACTC (5mC at 9 15 29 35)	3310
GAGGCCGGAGGACGTCAGCCTCCTGGCTGACGTCCTCCGGCCTCACACTC (5mC at 35)	4520
GAGGCCGCGTGACGTCAGCCTCCTGGCTGACGTCACGCGGCCTCACACTC	19700

Sample 4
Target: Centromere-binding protein 1, full length, His-tagged (CBF1, Saccharomyces cerevisiae, UniProt P17106, residues 1-351)
Sequence of UniProt P17106 (whole entry, looked up): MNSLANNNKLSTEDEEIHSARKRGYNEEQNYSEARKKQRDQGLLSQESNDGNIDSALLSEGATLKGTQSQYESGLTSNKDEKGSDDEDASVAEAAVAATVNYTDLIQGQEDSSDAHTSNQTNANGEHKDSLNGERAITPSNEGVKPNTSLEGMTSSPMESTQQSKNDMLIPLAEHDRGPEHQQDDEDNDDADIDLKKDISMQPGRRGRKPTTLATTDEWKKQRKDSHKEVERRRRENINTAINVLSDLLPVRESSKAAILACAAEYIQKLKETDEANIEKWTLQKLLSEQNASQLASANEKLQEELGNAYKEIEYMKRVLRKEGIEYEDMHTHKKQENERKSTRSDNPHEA
Method: competition protein-binding microarray
Form: double-stranded DNA, one strand shown
Medium: in vitro
Tested at: 2 µM
Setting: whole 60-bp probe, lowest competitor level
Together with: Pho4 competitor, 0.05 µM
Reading: higher = stronger binding
Shared flanks, not repeated: … GTCTTGATTCGCTTGACGCTGCTG
Sequence	fluorescence intensity [a.u.]
CTAACGAAGGTTTGTGACGTGGGTGACAAGCCAAGT	63.7
CGTCCTAGTGATTGCTAAGTGGGTGCCATGAGGAAG	92.2
GATGTTTCCGTCACCGACATGACAATAACCACTTGA	87.4
CTAACGAAGGTTTTTCACGTGTCTTACAAGCCAAGT	948
CGTCCTAGTGATTGTCACCACACTTCCATGAGGAAG	95.9
CTTCCTGTGGATTTTCACGGGCCGTCCCAAGCGCAA	63.3
AAAGCGGTAATTTGTCACAGCACTTCACATATCTAT	87.3
CTTTCCCGATCTTGTAGCGTGGGTGTAGCACATTTG	74.3
TTGTTGAATTTGGGACCCTTGTTGATACCTCTGGAT	60.2
CCTTATGTTATATGGCAGGTGAAATTGTGGGGCTAC	79.8
GTTAATGTTGGAGCTGTTGTGACGGTATTAGAACAA	84.2
TCGAAGAAACGAATTCACCTGATTGCAGCTGTAAAA	120
GAAACGGGTGGGAATGACGTGGTAATCAATGAACTA	70.2

Sample 5
Target: Interferon regulatory factor 3, full length, phosphomimetic (IRF3, Homo sapiens, UniProt Q14653, residues 1-427, S386D/S396D/S398D/S402D/T404D/S405D)
Method: protein-binding microarray
Form: double-stranded DNA, one strand shown
Medium: in vitro
Tested at: 2540 nM top
Setting: 60-bp whole probe
Together with: salmon DNA 0.4 mg/ml
Reference: random background probes
Reading: higher = stronger binding
Shared flanks, not repeated: GCCTAGCAC … GTCTTGATTCGCTTGACGCTGCTG
Construct (chain): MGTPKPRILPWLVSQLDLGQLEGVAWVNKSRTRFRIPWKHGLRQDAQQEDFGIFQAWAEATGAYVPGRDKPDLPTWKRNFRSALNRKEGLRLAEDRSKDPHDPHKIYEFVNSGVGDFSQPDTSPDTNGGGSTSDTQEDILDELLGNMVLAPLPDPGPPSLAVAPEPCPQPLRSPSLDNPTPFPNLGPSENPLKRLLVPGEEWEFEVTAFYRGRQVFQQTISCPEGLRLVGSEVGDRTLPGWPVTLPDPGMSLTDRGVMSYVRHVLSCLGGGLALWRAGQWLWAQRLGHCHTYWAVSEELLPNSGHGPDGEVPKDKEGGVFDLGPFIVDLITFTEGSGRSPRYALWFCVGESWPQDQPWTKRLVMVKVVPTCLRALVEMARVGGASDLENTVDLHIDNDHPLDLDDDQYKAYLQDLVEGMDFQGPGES
Sequence	fitted relative affinity
TCACTCTCTCTATTCTGTGGGTGCTAG	1.47 z-score
GGCGGTATCGGTATCGGGACGTGCTAG	4.59 z-score
TTAGGTTCCGGTTCCGGTTAGTGCTAG	5.57 z-score
TTGTGTTTGGGCATTTTTCTAGTGCTA	-0.555 z-score
CCAGTGCTGCTTTGTCAAGAGTGCTAG	-0.161 z-score
GACGCTATCGGTATCGGGACGTGCTAG	1.93 z-score
TTAGGACTGGATTATCGGTTAGTGCTA	0.0862 z-score
TCAGGTTTCGGTTCCGGTTAGTGCTAG	11.1 z-score
GACGGCTTCGGTCTCGGGACGTGCTAG	-0.108 z-score
TTAGACCTGAGTATCGATTAGTGCTAG	0.0635 z-score
TTAGGCTTCGACACTGGGTTAGTGCTA	-0.923 z-score
GACGATCTGGGGTTTCGAGACGTGCTA	0.359 z-score
GCCGGTTTCCTTTCCCTGACGTGCTAG	9.99 z-score
TATGTTCCTTATTTAAGACCGTGCTAG	3.71 z-score
GACGATTTCGGGACTGGAGAGGTGCTA	1.69 z-score
TTAAGTTTCCTTTTCCTTTAGTGCTAG	13.1 z-score
TTTGTTTCCATTTTCTGAATGTGCTAG	9.29 z-score
TTAGATATCAGTCTCGACTAGTGCTAG	0.941 z-score

Sample 6
Target: CREB3L1, bZIP domain (human)
Method: DHFR protein complementation
Medium: yeast
Setting: single substitutions, most at no-binding floor
Reference: wild-type JUN-FOS pair
Reading: higher = stronger binding
Parent: JUN, bZIP domain (human); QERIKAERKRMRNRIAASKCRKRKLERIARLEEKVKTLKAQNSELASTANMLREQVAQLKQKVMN; partner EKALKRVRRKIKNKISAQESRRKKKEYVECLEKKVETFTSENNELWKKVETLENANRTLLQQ
Variant	binding fitness [natural log]
V56E	-1.43
A46I	-1.34
I28W	-1.48
A46E	-1.2
K36P	-1.49
T37E	-1.43
A49V	-1.27
S43N	-1.25
E33G	-1.45
L31Q	-1.48
S47D	-1.16
L52T	-1.49
R30Q	-1.25
Q41T	-1.54
L38Q	-1.49
E32I	-1.54
T37S	-1.41

Repeated from above (sample 3):
Sequence	median fluorescence [a.u.]
GAGGCCGGCTCACGTCAGCCTCCTGGCTGACGTGAGCCGGCCTCACACTC	4700
GAGGCCGGGTGACGTCAGCCTCCTGGCTGACGTCACCCGGCCTCACACTC (5mC at 36)	17800
GAGGCCGGCTGCGGTCAGCCTCCTGGCTGACCGCAGCCGGCCTCACACTC (5mC at 32)	3520
GAGGCCGGCTCGCGTCAGCCTCCTGGCTGACGCGAGCCGGCCTCACACTC (5mC at 11 33)	5390
GAGGCCGACTACGTCGTGCCTCCTGGCACGACGTAGTCGGCCTCACACTC (5mC at 9 15 29)	5080
GAGGCCGGCTGACGCGAGCCTCCTGGCTCGCGTCAGCCGGCCTCACACTC	4290
GAGGCCGACCGCGTCGTGCCTCCTGGCACGACGCGGTCGGCCTCACACTC (5mC at 9 15 29 34)	5080
GAGGCCGACCACGTCGTGCCTCCTGGCACGACGTGGTCGGCCTCACACTC (5mC at 9 10 15 29)	4490
GAGGCCGGCTGACGCCAGCCTCCTGGCTGGCGTCAGCCGGCCTCACACTC	3780
